{"data": "Assay results collected from several papers", "UCHL1": "Ubiquitin carboxyl-terminal hydrolase isozyme L1 (UCHL1, Homo sapiens, UniProt P09936)", "note": "Protocols differ between the studies behind these lines.", "chain of UniProt P09936 (whole entry, looked up)": "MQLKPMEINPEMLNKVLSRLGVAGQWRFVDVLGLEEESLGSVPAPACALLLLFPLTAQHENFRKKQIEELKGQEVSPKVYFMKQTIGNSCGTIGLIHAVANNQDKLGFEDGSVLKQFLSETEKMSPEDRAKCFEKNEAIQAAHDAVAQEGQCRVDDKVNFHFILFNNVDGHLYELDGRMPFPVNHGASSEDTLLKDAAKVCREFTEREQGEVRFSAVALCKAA"}
{"Structure (SMILES)": "COc1ccc(S(=O)(=O)N(CC(C)C)C[C@@H](O)[C@H](Cc2ccccc2)NC(=O)O[C@H]2C[C@@H]3C[C@H]4[C@H](OC[C@H]42)O3)cc1", "target or system": "HIV-1", "test": "viral replication, antiviral", "test system": "MT2, LAI", "measurement": "IC50", "value": "0.021 µM"}
{"Structure (SMILES)": "COc1cnc(-n2cnc(C)n2)c2[nH]cc(C(=O)C(=O)N3CCN(C(=O)c4ccccc4)CC3)c12", "target or system": "HIV-1", "test": "viral replication, inhibitor, pseudovirus neutralization", "test system": "TZM-bl, 3718.v3.c11", "setting": "48 h", "measurement": "IC50", "value": "0.01 µM"}
{"Structure (SMILES)": "Cc1ccc(-c2ccc3c(c2)C=C(C(=O)Nc2ccc(C[N+](C)(C)C4CCOCC4)cc2)CCC3)cc1", "target or system": "HIV-1", "test": "viral attachment", "test system": "MAGI, Ba-L", "setting": "washout 3 h post infection", "measurement": "IC50", "value": "0.007 µM"}
{"Structure (SMILES)": "O=C(Nc1cc(-c2ccccn2)n[nH]1)N1CC[C@@H](Oc2ccc(F)cc2)C1", "target or system": "Trypanosoma cruzi", "test": "reporter translation, Renilla luciferase mRNA translation", "test system": "cell-free extract", "setting": "40 µM", "scale": "reference: DMSO", "measurement": "inhibition", "value": "-1.3%"}
{"Structure (SMILES)": "CN(CCC#N)CC(=O)Nc1cccnc1Cl", "target or system": "UCHL1", "test": "covalent, intact protein LC-MS", "setting": "12.5 µM", "measurement": "labelling", "value": "13.9%"}
{"Structure (SMILES)": "COc1ccccc1CC(=N)N1C[C@@H]2C(=O)CCC(c3ccccc3)(c3ccccc3)[C@@H]2C1", "target or system": "HIV-1", "test": "viral replication, refers to: p24", "test system": "PHA-stimulated PBMC, BaL (CCR5-tropic)", "setting": "7 days", "measurement": "IC50", "value": "11 µM"}
{"Structure (SMILES)": "CC(C)CN(C[C@@H](O)[C@H](Cc1ccccc1)NC(=O)O[C@H]1C[C@@H]2C[C@H]3[C@H](OC[C@H]31)O2)S(=O)(=O)c1ccc2nc(NC3CC3)sc2c1", "target or system": "HIV-1", "test": "viral replication, antiviral", "test system": "MT2, LAI", "measurement": "IC50", "value": "0.0009 µM"}
{"Structure (SMILES)": "C[C@H]1O[C@H](OC[C@H]2O[C@@H](Oc3c(-c4ccc(O)cc4)oc4cc(O)cc(O)c4c3=O)[C@H](O)[C@@H](O)[C@@H]2O)[C@@H](O)[C@@H](O)[C@@H]1O", "target or system": "HIV-1", "test": "viral infection", "test system": "TZM-bl, NL4-3 (CXCR4-tropic)", "setting": "48 h", "measurement": "IC50", "value": "> 100 µM"}
{"Structure (SMILES)": "O=C(NCc1c(F)cc(F)cc1F)c1cn2c(c(O)c1=O)C(=O)N1[C@H]3CC[C@H](C3)O[C@@H]1C2", "target or system": "HIV-1", "test": "viral replication, reverse transcriptase activity", "test system": "human monocyte-derived macrophages, ADA", "measurement": "IC50", "value": "0.00375 µM"}
{"Structure (SMILES)": "COc1cc(-c2oc3cc(O)cc(O)c3c(=O)c2O[C@@H]2O[C@H](CO[C@@H]3O[C@@H](C)[C@H](O)[C@@H](O)[C@H]3O)[C@@H](O)[C@H](O)[C@H]2O)ccc1O", "target or system": "HIV-1", "test": "viral infection", "test system": "TZM-bl, NL4-3 (CXCR4-tropic)", "setting": "48 h", "measurement": "IC50", "value": "> 100 µM"}
{"Structure (SMILES)": "C#CC(C)(CC)NS(=O)(=O)c1cc(Cl)c(C)cc1OC (stereo not shown)", "target or system": "UCHL1", "test": "covalent, intact protein LC-MS", "setting": "12.5 µM", "measurement": "labelling", "value": "9.11%"}
{"Structure (SMILES)": "O=c1c(O[C@@H]2O[C@H](CO)[C@@H](O)[C@H](O)[C@H]2O)c(-c2ccc(O)cc2)oc2cc(O)cc(O)c12", "target or system": "HIV-1", "test": "viral infection", "test system": "TZM-bl, NL4-3 (CXCR4-tropic)", "setting": "48 h", "measurement": "IC50", "value": "> 100 µM"}
{"Structure (SMILES)": "CC(C)(C)NC(=O)[C@@H]1C[C@@H]2CCCC[C@@H]2CN1C[C@@H](O)[C@H](Cc1ccccc1)NC(=O)[C@H](CC(N)=O)NC(=O)c1ccc2ccccc2n1", "target or system": "HIV-1", "test": "viral replication, MTT", "test system": "MT-2, LAI", "measurement": "IC50", "value": "0.015 µM"}
{"note": "Repeated from above:"}
{"Structure (SMILES)": "COc1cnc(-n2cnc(C)n2)c2[nH]cc(C(=O)C(=O)N3CCN(C(=O)c4ccccc4)CC3)c12", "target or system": "HIV-1", "test": "viral replication, inhibitor, pseudovirus neutralization", "test system": "TZM-bl, 3718.v3.c11", "setting": "48 h", "measurement": "IC50", "value": "0.01 µM"}
